Experimental data of several laboratories.
Protocols differ between the studies behind these lines. pIC50: −log10 of the molar value.
B1: FGF6 (Homo sapiens, UniProt P10767); chain SPAGTRANNTLLDSRGWGTLLSRSRAGLAGEIAGVNWESGYLVGIKRQRRLYCNVGIGFHLQVLPDGRISGTHEENPYSLLEISTVERGVVSLFGVRSALFVAMNSKGRLYATPSFQEECKFRETLLPNNYNAYESDLYQGTYIALSKYGRVKRGSKVSPIMTVTHFLPRI
B2: UGT1A9 (Homo sapiens, UniProt O60656); chain GKLLVVPMDGSHWFTMRSVVEKLILRGHEVVVVMPEVSWQLGRSLNCTVKTYSTSYTLEDLDREFKAFAHAQWKAQVRSIYSLLMGSYNDIFDLFFSNCRSLFKDKKLVEYLKESSFDAVFLDPFDNCGLIVAKYFSLPSVVFARGILCHYLEEGAQCPAPLSYVPRILLGFSDAMTFKERVRNHIMHLEEHLLCHRFFKNALEIASEILQTPVTEYDLYSHTSIWLLRTDFVLDYPKPVMPNMIFIGGINCHQGKPLPMEFEAYINASGEHGIVVFSLGSMVSEIPEKKAMAIADALGKIPQTVLWRYTGTRPSNLANNTILVKWLPQNDLLGHPMTRAFITHAGSHGVYESICNGVPMVMMPLFGDQMDNAKRMETKGAGVTLNVLEMTSEDLENALKAVINDKSYKENIMRLSSLHKDRPVEPLDLAVFWVEFVMRHKGAPHLRPAAHDLTWYQYHSLDVIGFLLAVVLTVAFITFKCCAYGYRKCLGKKGRVKKAHKSKTH
B3: mel-26 (Caenorhabditis elegans, UniProt Q94420); sequence looked up; chain MEPRIDGGVFIGGIGNSGNEMCSNGVPALGVSSQTEIKVEKVQHTWTVKNFSHCYQEYLENFVYLQRGDEQLTWSIKIYPKGNGENNKDFVFLCLNRVINNNVKAGKIGFKSQFKLRTAENKDIEMRIHPNPSHSDYVSYIKRDVLFPQIMPRDMIIVNVEIDVAVETITTTNEPIQFEPTNSEQQLIEDYQRLFSQELLCDFAINVNGKIIRAHKAVLAARSPVFNAMLTHQDTDEAKSSMMYINDMDYDVIYEMVYYIYCGRCNKDITDMATALLIAADKYRLEELKSHCEKYLVENINIENACSLLIIGDLYSAPKLRKRAVTYILARPKNVTGTPGWEDILKGHPNLITDIFSQIDRQSSTGATSSVSNLPGVPMDIPGITGNIVPPPSGL
B4: L3MBTL3 1-523 (Homo sapiens, UniProt Q96JM7-2); sequence looked up; chain MTESASSTSGQEFDVFSVMDWKDGVGTLPGSDLKFRVNEFGALEVITDENEMENVKKATATTTWMVPTAQEVFSEKTGMPFRLKDPVKVEGLQFCENCCQYGNVDECLSGGNYCSQNCARHIKDKDQKEERDVEEDNEEEDPKCSRKKKPKLSLKADTKEDGEERDDEMENKQDVRILRGSQRARRKRRGDSAVLKQGLPPKGKKAWCWASYLEEEKAVAVPAKLFKEHQSFPYNKNGFKVGMKLEGVDPEHQSVYCVLTVAEVCGYRIKLHFDGYSDCYDFWVNADALDIHPVGWCEKTGHKLHPPKGYKEEEFNWQTYLKTCKAQAAPKSLFENQNITVIPSGFRVGMKLEAVDKKNPSFICVATVTDMVDNRFLVHFDNWDESYDYWCEASSPHIHPVGWCKEHRRTLITPPGYPNVKHFSWDKYLEETNSLPAPARAFKVKPPHGFQKKMKLEVVDKRNPMFIRVATVADTDDHRVKVHFDGWNNCYDYWIDADSPDIHPVGWCSKTGHPLQPPLSPLE
Chain of UniProt P70618 (whole entry, looked up): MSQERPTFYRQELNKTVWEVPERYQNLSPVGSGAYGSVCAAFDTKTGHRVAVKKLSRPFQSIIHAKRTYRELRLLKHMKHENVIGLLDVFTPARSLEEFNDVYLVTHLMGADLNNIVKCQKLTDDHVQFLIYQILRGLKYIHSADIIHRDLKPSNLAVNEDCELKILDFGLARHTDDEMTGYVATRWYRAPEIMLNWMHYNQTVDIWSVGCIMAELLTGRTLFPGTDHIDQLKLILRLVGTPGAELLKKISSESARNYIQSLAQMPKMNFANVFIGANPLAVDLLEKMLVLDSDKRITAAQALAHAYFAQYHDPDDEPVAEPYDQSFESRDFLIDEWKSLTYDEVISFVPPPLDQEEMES
Chain of UniProt Q06609 (whole entry, looked up): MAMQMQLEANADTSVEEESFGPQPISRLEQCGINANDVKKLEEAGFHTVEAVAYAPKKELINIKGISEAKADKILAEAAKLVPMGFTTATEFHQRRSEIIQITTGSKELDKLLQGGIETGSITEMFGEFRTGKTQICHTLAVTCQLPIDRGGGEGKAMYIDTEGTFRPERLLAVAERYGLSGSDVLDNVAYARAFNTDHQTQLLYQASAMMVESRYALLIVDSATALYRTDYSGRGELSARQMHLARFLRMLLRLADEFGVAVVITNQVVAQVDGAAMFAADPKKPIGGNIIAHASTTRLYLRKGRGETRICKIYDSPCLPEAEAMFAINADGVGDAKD
Chain of UniProt Q8NFZ0 (whole entry, looked up): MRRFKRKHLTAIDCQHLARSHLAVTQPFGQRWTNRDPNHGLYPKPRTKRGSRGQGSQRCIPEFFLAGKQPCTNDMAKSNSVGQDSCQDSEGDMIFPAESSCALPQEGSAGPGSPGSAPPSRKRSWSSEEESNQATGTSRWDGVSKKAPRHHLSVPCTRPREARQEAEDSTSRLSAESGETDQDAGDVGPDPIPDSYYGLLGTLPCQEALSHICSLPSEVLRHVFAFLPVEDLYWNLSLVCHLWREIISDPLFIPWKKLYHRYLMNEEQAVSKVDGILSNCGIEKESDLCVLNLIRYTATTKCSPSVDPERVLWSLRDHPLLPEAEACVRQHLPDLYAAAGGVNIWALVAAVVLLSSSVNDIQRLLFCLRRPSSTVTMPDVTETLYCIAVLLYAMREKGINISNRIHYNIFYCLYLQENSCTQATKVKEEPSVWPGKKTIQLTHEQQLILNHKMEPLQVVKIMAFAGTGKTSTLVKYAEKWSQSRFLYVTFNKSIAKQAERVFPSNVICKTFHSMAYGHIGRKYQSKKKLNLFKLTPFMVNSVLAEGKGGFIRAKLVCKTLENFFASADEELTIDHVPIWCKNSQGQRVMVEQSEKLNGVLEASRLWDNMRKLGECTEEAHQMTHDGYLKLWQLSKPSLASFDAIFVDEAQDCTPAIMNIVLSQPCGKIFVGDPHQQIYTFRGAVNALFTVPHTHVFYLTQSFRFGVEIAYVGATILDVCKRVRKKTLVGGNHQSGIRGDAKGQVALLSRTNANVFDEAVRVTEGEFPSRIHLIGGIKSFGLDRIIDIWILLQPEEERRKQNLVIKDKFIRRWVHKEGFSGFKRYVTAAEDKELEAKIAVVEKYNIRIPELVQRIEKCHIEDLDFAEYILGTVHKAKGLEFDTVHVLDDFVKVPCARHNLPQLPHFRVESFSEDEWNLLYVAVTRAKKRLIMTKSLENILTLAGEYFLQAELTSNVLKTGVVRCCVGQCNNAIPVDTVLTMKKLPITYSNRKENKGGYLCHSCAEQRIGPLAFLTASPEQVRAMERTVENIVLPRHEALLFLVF
Chain of UniProt P31266 (whole entry, unmodified, looked up): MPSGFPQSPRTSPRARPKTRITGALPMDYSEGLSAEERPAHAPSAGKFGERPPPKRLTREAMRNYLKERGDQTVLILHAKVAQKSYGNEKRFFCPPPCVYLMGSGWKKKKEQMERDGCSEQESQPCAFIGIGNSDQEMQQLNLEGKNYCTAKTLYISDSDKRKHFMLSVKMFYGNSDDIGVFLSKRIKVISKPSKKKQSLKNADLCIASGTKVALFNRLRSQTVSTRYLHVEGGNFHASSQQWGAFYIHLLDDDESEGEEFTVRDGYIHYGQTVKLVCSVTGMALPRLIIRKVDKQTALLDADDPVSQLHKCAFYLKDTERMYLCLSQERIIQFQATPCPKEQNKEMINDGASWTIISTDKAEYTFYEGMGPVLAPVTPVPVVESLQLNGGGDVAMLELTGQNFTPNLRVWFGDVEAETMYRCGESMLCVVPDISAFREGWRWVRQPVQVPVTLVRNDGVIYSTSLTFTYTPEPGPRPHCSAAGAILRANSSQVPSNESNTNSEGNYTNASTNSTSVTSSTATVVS
Chain of UniProt P21784 (whole entry, looked up): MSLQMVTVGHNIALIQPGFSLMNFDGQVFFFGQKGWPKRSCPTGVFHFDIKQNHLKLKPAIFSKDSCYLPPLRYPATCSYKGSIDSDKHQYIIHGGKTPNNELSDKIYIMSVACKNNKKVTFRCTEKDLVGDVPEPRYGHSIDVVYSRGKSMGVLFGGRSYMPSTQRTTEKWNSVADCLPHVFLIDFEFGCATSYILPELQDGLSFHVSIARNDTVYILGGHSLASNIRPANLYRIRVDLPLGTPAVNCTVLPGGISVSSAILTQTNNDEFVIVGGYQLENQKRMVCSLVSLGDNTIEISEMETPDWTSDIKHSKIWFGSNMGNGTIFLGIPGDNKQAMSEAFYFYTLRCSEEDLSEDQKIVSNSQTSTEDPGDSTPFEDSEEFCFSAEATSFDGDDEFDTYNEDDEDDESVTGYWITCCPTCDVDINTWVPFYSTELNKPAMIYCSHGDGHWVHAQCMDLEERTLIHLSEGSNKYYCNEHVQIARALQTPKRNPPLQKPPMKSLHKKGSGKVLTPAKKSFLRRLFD
Chain of UniProt Q61851 (whole entry, looked up): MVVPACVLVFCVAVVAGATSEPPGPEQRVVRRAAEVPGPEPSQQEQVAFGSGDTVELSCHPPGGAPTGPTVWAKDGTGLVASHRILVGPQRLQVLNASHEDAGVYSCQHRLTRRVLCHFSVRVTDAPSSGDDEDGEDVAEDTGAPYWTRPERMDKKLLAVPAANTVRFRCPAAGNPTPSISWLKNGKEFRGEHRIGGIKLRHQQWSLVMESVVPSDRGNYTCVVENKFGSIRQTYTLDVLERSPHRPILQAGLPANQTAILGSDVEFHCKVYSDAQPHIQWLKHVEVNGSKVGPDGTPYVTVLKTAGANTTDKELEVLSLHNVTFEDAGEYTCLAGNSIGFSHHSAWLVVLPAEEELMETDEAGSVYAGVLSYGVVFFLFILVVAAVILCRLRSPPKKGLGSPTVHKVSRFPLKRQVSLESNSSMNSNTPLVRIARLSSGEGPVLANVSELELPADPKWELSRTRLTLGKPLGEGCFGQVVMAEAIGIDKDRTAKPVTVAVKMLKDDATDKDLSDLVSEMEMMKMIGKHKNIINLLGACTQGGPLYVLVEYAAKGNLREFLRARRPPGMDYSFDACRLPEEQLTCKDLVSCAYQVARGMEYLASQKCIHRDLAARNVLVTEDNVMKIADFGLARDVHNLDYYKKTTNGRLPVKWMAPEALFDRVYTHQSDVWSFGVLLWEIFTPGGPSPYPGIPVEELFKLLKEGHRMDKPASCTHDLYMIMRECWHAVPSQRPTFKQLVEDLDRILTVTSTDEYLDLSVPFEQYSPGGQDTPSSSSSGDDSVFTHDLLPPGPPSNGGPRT
Chain of UniProt P0A6A8 (whole entry, looked up): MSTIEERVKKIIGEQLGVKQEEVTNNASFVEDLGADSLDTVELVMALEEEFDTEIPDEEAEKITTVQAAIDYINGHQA
Chain of UniProt P56198 (whole entry, unmodified, looked up): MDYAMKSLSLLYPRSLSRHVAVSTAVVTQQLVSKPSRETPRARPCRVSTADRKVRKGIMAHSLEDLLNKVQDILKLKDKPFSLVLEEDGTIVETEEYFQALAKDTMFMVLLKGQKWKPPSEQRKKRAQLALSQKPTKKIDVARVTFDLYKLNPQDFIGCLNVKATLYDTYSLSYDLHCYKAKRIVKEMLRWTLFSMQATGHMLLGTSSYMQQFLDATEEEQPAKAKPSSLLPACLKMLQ

Molecule	target or system	test	test system	setting	scale	measurement	result
PLIN1 del292-319	Cidec (Mus musculus, UniProt P56198)	FRAP	3T3-L1 preadipocytes		higher = faster exchange	lipid exchange rate	0.16 µm^3 s⁻¹
B1 (FGF6)	FGFR3 isoform IIIc (unknown, UniProt Q61851)	cell proliferation, MTT	BaF3-FGFR3c	20 nM, 48 h, together with: heparin 4.9 µg/mL	reference: FGF 1 with heparin, higher = more proliferation	cell proliferation	74%
RAD51 (Homo sapiens, UniProt Q06609)	FBH1, polyubiquitinated (Homo sapiens, UniProt Q8NFZ0)	single-molecule TIRFM		apparent, together with: ATP 1 mM		koff	0.11 s⁻¹
NrdA-a/NrdA-b (Aeh1 phage)	NrdB small subunit, wild type (phage Aeh1)	CDP reduction to dCDP		together with: NrdB, DTT		specific activity	946 U/mg
fabF fragment (Escherichia coli)	acpP C12-acylated 1-78, C12 acyl on 4'-phosphopantetheine (Escherichia coli, UniProt P0A6A8)	holo-AcpP formation, HPLC		10 µM, together with: malonyl-CoA		condensation rate	2.24 min⁻¹
B2 (UGT1A9)	Oc1ccc([C@H]2COc3cc(O)ccc3C2)cc1	steady-state kinetics		pH 7.4, 37 °C		Vmax	0.000794 µmol/min/mg
POLR2A CTD repeats	Brd4 (Mus musculus, UniProt Q9ESU6)	in vitro kinase assay		together with: radiolabeled ATP		Km	0.259 µM
TFPI endogenous, on cells (Homo sapiens, UniProt P10646)	F3/F7 TF-fVIIa complex (Homo sapiens)	factor Xa generation	HUVEC	LPS-treated, endogenous TF, methyl-β-cyclodextrin		maximum factor Xa generated	39.6 nM
YASKGKKRNPGLKIPK (MAP2K6 residues 4-17 (Homo sapiens))	Mapk14, pT180, pY182 (Rattus norvegicus, UniProt P70618)	kinase activity, inhibitor, competitive kinase inhibition assay	peptide	together with: ATP 1 mM		pIC50	4.80
H3K4me3 peptide, K4me3	Rag2 (Mus musculus, UniProt P21784)	coupled cleavage of 12-RSS		1 hr, together with: H3K4me3 0.5-4 µM	reference: no peptide, higher = more hairpin	hairpin yield	> 10 fold
B3 (mel-26)	mei-1/mei-2 S113A, phosphorylated by MBK-2 (Caenorhabditis elegans)	dot blot		4 °C, native		binding	binds
B4 (L3MBTL3 1-523)	Rbpj 53-474 (Mus musculus, UniProt P31266)	ITC		pH 6.5, 25 °C, NaCl 150 mM		ΔH	-10.6 kcal/mol

A few entries again:
Molecule	target or system	test	test system	setting	scale	measurement	result
B2 (UGT1A9)	Oc1ccc([C@H]2COc3cc(O)ccc3C2)cc1	steady-state kinetics		pH 7.4, 37 °C		Vmax	0.000794 µmol/min/mg
